Measurements collected from several papers.
Parts stem from different laboratories: compare values within a part only. Positions count from the first letter of the parent shown.
UniProt O15294, sequence (whole entry, looked up): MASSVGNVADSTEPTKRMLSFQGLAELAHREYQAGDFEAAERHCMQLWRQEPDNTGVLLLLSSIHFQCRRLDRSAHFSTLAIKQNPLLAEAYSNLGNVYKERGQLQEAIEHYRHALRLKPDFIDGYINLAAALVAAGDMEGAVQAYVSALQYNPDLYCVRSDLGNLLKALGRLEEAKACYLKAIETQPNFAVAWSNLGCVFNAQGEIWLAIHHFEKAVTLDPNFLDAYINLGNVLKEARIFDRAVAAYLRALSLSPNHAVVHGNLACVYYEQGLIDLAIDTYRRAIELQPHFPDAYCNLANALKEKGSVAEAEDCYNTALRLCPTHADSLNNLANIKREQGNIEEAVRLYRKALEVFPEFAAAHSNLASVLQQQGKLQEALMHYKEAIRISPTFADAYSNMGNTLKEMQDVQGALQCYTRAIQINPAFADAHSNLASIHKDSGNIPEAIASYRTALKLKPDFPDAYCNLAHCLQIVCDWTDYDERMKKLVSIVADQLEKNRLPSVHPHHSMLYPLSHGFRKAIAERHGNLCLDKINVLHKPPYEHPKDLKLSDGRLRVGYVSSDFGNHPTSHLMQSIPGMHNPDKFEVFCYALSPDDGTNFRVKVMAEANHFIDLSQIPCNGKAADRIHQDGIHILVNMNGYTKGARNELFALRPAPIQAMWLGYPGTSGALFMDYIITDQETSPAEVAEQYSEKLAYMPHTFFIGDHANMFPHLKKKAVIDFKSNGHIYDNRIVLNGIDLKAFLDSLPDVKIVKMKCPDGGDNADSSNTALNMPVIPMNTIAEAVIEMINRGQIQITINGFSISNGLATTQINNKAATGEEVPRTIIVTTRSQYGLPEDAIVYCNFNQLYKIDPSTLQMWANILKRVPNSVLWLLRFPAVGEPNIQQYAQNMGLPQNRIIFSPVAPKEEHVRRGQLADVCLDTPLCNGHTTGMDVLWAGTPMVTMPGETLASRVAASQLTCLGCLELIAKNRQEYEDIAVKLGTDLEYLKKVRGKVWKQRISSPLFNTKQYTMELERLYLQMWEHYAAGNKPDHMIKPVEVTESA

Series 1
Target: ABI1, truncated, D143A, DHFR fusion (Arabidopsis thaliana)
Method: DHFR PCA, deep sequencing
Matrix: yeast
Setting: methotrexate growth selection, single substitutions
Added: (+)-ABA 4.8 µM
Baseline: wild-type fitted maximum
Reading: higher = stronger binding
Starting sequence: PYL1, truncated, DHFR fusion (Arabidopsis thaliana); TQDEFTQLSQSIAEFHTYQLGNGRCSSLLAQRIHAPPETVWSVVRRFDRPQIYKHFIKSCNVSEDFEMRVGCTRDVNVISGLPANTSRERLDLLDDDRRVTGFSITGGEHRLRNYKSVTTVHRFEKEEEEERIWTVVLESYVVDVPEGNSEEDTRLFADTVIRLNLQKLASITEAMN; partner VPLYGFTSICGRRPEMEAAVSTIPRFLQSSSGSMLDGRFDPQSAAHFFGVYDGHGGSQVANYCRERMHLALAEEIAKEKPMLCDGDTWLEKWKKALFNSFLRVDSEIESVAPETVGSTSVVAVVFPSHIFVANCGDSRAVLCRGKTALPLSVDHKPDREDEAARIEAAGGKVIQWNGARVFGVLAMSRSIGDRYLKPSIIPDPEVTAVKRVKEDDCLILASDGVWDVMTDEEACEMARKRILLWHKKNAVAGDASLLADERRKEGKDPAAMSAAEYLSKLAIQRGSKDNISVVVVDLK
Change	relative binding score
R155C	45.8%
F15L	29.7%
R90D	-3.23%
P50N	-1.7%
V142P	-16.9%
G81D	-5.63%
E152C	45.6%
V78C	61.4%

Series 2
Target: Histone acetyltransferase KAT6A, winged helix 2, GST fusion (KAT6A, Homo sapiens, UniProt Q92794, residues 85-181)
Method: protein binding microarray
Form: double-stranded DNA, one strand shown
Matrix: in vitro
Concentration: not given
Setting: 8-mer, flanks averaged, mean of 2 arrays, mostly near background
Baseline: not given
Reading: higher = stronger binding
Target sequence (chain): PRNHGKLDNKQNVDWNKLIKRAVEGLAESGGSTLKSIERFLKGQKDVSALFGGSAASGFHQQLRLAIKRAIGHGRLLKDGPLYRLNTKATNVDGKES
Sequence	E-score
GGAGTATA	-0.0887
ACGGCGTA	-0.0196
AATGCTCT	0.0197
GCCTAGGC	0.084
ACTTCCCA	-0.0144
ACCATCAG	-0.124
CGTCGCAC	0.154
AAGTGAGT	-0.115

Further values, each from its own experiment
Substance	target or system	test	test system	setting	scale	quantity	result
WNAPRHHDTHWHVYT	UDP-N-acetylglucosamine--peptide N-acetylglucosaminyltransferase 110 kDa subunit (OGT, Homo sapiens, UniProt O15294)	binding, phage display NGS	peptide	concentration not given	baseline: input library	enrichment fold change	4.95
COQ3 (Homo sapiens, UniProt Q9NZJ6)	COQ6 (Homo sapiens, UniProt Q9Y2Z9)	cross-linking MS	cell fractions	added: DSSO		cross-linked residues	K196 to K64

Some of these lines once more (further values, each from its own experiment):
Substance	target or system	test	test system	setting	scale	quantity	result
WNAPRHHDTHWHVYT	UDP-N-acetylglucosamine--peptide N-acetylglucosaminyltransferase 110 kDa subunit (OGT, Homo sapiens, UniProt O15294)	binding, phage display NGS	peptide	concentration not given	baseline: input library	enrichment fold change	4.95
COQ3 (Homo sapiens, UniProt Q9NZJ6)	COQ6 (Homo sapiens, UniProt Q9Y2Z9)	cross-linking MS	cell fractions	added: DSSO		cross-linked residues	K196 to K64
